Measurements collected from several papers.
A part holds a random share of what one study measured. Positions count from the first letter of the parent shown.
Chain of UniProt P10721 (whole entry, unmodified, looked up): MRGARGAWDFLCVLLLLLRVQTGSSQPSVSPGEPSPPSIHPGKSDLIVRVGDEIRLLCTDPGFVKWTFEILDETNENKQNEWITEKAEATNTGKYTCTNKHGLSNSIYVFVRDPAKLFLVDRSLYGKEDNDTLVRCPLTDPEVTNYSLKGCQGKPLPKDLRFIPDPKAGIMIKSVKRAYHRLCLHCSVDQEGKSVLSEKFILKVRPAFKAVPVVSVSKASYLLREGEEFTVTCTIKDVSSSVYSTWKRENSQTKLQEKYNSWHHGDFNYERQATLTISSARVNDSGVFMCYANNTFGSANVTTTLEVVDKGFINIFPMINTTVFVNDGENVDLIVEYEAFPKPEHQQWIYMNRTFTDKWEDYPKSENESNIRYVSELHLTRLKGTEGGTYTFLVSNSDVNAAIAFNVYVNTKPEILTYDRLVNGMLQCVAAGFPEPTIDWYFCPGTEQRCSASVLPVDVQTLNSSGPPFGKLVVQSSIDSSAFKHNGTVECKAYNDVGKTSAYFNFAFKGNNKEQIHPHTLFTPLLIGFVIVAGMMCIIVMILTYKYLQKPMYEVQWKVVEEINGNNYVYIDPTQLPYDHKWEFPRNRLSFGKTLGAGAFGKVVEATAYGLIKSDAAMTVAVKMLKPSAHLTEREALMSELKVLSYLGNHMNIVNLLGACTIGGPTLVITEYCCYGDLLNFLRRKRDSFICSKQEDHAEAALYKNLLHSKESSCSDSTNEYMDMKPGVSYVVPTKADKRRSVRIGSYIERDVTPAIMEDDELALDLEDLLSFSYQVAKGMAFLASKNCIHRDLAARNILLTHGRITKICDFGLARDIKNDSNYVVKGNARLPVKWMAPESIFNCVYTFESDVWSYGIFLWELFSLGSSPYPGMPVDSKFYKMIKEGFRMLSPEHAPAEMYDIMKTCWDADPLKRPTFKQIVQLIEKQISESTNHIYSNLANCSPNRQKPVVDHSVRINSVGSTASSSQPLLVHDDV
Chain of UniProt Q8TDR2 (whole entry, looked up): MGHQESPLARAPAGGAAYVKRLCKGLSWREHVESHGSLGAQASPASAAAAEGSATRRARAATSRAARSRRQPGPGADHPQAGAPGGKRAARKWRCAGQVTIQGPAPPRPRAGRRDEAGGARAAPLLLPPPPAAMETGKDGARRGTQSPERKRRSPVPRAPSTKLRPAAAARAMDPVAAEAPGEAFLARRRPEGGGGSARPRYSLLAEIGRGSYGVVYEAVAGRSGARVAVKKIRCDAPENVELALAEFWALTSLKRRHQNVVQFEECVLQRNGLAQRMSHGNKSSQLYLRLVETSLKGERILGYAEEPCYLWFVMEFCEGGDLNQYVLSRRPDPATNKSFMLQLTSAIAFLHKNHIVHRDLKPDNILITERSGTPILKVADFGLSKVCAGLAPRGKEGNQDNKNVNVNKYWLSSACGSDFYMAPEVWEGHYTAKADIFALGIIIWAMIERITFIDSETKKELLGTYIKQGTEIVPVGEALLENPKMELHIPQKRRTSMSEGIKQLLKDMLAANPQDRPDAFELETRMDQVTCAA
Chain of UniProt O75676 (whole entry, looked up): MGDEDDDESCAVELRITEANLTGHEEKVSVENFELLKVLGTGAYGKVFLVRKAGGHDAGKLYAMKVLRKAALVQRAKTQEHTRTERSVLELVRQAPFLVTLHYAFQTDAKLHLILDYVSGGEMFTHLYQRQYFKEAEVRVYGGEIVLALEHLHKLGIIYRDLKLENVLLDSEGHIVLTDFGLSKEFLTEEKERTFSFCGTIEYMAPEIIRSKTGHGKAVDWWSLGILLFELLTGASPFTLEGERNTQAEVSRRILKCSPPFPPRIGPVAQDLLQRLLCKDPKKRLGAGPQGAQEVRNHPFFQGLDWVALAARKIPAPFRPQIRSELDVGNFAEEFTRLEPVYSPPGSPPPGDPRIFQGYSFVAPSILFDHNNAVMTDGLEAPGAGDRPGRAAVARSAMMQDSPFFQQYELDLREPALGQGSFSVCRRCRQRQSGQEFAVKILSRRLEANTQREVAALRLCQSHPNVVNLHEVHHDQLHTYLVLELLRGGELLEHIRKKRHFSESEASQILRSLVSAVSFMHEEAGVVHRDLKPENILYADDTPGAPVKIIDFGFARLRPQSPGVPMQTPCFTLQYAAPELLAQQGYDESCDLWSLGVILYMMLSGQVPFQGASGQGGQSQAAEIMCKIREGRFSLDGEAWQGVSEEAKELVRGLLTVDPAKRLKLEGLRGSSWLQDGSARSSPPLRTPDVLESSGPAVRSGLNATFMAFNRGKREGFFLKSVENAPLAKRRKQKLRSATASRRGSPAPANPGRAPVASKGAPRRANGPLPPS
Chain of UniProt O60331 (whole entry, looked up): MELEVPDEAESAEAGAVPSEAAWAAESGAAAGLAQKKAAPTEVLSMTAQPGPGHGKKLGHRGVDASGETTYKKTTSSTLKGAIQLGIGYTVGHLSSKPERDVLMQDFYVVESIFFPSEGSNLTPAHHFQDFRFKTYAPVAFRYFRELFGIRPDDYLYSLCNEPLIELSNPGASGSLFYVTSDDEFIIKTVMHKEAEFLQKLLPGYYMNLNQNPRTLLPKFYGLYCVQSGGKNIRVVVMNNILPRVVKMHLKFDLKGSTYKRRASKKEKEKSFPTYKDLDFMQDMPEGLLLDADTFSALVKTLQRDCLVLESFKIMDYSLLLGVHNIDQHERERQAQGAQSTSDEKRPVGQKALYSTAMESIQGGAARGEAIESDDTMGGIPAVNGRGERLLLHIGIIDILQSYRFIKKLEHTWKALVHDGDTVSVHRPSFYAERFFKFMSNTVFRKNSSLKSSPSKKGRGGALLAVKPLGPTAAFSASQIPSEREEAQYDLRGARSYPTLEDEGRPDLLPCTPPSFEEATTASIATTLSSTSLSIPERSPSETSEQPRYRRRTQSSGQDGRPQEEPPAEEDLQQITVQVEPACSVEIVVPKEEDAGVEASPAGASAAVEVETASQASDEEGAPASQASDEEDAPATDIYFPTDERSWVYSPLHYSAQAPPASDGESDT
Chain of UniProt Q9C098 (whole entry, looked up): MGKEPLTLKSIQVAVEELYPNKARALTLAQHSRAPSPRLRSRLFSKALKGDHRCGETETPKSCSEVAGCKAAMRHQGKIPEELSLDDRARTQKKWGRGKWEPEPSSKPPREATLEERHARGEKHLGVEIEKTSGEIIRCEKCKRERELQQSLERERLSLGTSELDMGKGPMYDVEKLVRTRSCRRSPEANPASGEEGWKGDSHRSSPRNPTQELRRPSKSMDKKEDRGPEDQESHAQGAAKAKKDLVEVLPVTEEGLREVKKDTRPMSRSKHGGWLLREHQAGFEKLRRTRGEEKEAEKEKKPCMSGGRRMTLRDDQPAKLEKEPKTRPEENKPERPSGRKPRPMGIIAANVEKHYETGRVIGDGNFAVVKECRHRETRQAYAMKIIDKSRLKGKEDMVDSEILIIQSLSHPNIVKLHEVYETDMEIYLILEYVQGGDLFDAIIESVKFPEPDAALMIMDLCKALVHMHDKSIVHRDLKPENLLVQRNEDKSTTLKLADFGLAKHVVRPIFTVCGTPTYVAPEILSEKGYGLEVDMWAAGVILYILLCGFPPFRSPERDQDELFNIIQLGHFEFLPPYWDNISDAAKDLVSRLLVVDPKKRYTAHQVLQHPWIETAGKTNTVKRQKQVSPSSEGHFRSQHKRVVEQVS
Chain of UniProt Q8NI60 (whole entry, looked up): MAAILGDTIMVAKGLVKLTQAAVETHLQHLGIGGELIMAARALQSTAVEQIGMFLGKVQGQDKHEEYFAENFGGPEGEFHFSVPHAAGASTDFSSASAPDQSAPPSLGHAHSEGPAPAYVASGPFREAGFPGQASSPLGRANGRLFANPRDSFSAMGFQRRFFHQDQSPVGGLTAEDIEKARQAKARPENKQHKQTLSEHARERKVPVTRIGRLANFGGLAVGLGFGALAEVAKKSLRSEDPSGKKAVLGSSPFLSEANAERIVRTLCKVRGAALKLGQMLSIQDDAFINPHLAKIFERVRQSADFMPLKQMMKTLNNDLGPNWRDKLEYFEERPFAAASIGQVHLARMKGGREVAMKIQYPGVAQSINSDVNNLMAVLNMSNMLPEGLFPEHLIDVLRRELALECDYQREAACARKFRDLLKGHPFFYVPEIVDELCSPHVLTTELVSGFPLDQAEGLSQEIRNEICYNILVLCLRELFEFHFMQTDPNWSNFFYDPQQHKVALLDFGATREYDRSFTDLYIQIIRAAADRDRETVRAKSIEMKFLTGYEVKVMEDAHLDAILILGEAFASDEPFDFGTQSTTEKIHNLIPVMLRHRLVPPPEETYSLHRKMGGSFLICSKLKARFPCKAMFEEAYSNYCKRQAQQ
Chain of UniProt Q13188 (whole entry, looked up): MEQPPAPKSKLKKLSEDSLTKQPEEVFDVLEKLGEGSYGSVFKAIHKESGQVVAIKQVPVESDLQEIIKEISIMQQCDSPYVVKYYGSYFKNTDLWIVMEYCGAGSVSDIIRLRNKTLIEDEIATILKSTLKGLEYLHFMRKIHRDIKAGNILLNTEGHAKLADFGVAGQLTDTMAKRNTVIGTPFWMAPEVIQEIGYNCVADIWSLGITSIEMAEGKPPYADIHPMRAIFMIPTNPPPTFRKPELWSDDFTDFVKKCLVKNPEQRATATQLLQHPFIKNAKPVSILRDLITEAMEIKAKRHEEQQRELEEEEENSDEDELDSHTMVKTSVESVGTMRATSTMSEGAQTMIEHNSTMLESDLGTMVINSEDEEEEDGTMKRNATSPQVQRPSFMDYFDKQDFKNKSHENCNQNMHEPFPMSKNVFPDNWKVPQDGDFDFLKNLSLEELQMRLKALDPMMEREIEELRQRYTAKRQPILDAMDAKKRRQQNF

Study 1 — target: CCNA1, cyclin fold, Cln2 fusion (human); technique: yeast growth competition, sequencing; medium: yeast; setting: strong parent motif; relative to: not given; reading: higher = stronger binding; measurement: normalised enrichment score
Starting sequence: viral docking peptide; YKVKRRLVFGADD; partner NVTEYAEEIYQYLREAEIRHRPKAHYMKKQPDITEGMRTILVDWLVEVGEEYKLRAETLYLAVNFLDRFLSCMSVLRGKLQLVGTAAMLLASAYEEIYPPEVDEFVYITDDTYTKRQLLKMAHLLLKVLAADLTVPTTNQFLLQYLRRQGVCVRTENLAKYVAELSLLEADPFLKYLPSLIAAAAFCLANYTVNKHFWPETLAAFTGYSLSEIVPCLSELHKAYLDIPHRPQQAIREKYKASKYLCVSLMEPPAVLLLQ
YKVKRRLVFGTDD [A11T]: 1.81
YKVKRRLVFGWDD [A11W]: 0.857
YKVKRRLDFGADD [V8D]: 2.1
YCVKRRLVFGADD [K2C]: 1.05
YKVKRRLVFTADD [G10T]: 1.17

Study 2 — read-out: peptide-MHC binding; form: peptide; tested at: concentration not given; measurement: binding
Target: HLA class I histocompatibility antigen, C alpha chain, allele C*04:01 (Homo sapiens, UniProt P10321)
YSLEYFQF: inactive
NTDNKFISY: inactive
MVFGRFSFA: inactive
YAREAGIAM: inactive
YTMELCGAM: inactive
YLREHIRAM: inactive
FSFFMNENF: inactive
HPASRLFPF: inactive

Study 3 — technique: competition with immobilised ligand; tested at: 1 µM; measurement: remaining binding
SMILES: Cn1cncc1[C@@](O)(COc1ccc(C#N)cc1-c1ccc(OC(F)(F)F)cc1)c1ccc(C#N)cc1
CSF1R (Homo sapiens, UniProt P07333); cell-free assay: 85%
STK35 (Homo sapiens, UniProt Q8TDR2); cell-free assay: 100%
Tyrosine-protein kinase ABL1, non-phosphorylated (ABL1, Homo sapiens, UniProt P00519, T315I); cell-free assay: 100%
Ribosomal protein S6 kinase alpha-4, C-terminal kinase domain (RPS6KA4, Homo sapiens, UniProt O75676); cell-free assay: 93%
MAP3K20 (Homo sapiens, UniProt Q9NYL2); cell-free assay: 85%
ACVRL1 (Homo sapiens, UniProt P37023); binding: 100%
STK3 (Homo sapiens, UniProt Q13188); cell-free assay: 95%
KIT (Homo sapiens, UniProt P10721, T670I/V559D); cell-free assay: 82%
PIK3CA (Homo sapiens, UniProt P42336, I800L); cell-free assay: 84%
KIT (Homo sapiens, UniProt P10721); cell-free assay: 98%
PIP5K1C (Homo sapiens, UniProt O60331); cell-free assay: 100%
NEK10 (Homo sapiens, UniProt Q6ZWH5); cell-free assay: 84%
NEK11 (Homo sapiens, UniProt Q8NG66); cell-free assay: 100%
DCLK3 (Homo sapiens, UniProt Q9C098); cell-free assay: 94%
COQ8A (Homo sapiens, UniProt Q8NI60); cell-free assay: 100%

Further values, each from its own experiment — read-out: enzyme activity; mode: inhibitor; tested at: 0.5 µM
O=C1NC(=O)c2c1c1c3ccccc3n3c1c1c2c2ccccc2n1[C@H]1CC[C@@H]3O1  remaining activity (YES1 (Homo sapiens, UniProt P07947); relative to: control): 31.9%
CC(C)(C)c1cc(C=C(C#N)C#N)cc(Br)c1O  remaining activity (PKN2 (Homo sapiens, UniProt Q16513)): 64.3%

Excerpt of the above (study 3):
KIT (Homo sapiens, UniProt P10721); cell-free assay: 98%
PIK3CA (Homo sapiens, UniProt P42336, I800L); cell-free assay: 84%
